Results pooled from the literature.
Each numbered part is a random draw from the data of one study; scales do not carry over between parts. Values joined by “and” are separate records of one study, mostly repeats; a detail may differ. ± marks the error that the study gave.
UniProt Q9Y2K2, sequence (whole entry, looked up): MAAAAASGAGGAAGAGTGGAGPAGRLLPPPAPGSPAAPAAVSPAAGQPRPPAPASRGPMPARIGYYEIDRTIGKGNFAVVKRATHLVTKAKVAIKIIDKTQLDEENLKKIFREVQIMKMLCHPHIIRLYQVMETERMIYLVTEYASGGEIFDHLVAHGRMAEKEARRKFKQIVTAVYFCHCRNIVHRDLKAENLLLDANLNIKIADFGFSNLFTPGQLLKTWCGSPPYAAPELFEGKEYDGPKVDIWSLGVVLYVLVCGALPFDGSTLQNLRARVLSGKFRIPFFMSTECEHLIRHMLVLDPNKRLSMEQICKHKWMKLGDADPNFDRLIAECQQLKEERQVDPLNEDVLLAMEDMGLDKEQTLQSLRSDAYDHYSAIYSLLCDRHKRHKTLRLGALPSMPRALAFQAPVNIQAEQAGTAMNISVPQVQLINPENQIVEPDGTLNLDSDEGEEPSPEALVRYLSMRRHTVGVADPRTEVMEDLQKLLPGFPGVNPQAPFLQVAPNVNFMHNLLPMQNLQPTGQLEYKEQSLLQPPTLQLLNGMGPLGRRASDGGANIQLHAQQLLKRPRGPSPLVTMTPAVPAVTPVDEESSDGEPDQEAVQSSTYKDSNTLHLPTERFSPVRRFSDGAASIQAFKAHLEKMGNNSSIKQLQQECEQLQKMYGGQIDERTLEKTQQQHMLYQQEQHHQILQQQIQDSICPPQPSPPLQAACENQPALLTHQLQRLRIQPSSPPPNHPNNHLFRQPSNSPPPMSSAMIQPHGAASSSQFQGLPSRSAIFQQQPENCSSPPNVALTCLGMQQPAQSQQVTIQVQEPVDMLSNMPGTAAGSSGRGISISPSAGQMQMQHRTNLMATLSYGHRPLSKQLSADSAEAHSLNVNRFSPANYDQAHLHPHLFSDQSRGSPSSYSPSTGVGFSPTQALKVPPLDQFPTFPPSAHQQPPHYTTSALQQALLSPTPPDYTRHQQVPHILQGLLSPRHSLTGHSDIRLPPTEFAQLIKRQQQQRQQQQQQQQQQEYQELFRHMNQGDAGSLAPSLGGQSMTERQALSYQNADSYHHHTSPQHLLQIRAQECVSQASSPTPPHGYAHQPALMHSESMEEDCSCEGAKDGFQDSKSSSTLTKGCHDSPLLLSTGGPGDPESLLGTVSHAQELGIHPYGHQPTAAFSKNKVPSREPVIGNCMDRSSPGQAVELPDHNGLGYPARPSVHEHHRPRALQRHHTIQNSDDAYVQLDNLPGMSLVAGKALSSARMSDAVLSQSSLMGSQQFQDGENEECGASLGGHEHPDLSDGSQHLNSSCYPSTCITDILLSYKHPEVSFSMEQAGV
UniProt Q00537, sequence (whole entry, looked up): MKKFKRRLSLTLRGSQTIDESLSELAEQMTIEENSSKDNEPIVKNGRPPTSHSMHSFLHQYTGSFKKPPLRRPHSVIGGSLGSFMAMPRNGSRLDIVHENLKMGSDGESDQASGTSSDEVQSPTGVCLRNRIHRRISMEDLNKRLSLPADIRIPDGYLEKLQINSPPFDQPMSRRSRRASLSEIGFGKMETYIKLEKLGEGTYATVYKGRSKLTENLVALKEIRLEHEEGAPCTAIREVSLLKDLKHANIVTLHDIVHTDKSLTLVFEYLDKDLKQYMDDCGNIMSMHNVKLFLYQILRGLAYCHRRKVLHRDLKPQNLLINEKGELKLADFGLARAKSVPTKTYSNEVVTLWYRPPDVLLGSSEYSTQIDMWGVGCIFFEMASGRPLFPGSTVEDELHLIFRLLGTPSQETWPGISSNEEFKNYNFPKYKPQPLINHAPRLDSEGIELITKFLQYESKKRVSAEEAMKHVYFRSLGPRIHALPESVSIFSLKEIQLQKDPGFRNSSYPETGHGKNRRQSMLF
UniProt P25098, sequence (whole entry, looked up): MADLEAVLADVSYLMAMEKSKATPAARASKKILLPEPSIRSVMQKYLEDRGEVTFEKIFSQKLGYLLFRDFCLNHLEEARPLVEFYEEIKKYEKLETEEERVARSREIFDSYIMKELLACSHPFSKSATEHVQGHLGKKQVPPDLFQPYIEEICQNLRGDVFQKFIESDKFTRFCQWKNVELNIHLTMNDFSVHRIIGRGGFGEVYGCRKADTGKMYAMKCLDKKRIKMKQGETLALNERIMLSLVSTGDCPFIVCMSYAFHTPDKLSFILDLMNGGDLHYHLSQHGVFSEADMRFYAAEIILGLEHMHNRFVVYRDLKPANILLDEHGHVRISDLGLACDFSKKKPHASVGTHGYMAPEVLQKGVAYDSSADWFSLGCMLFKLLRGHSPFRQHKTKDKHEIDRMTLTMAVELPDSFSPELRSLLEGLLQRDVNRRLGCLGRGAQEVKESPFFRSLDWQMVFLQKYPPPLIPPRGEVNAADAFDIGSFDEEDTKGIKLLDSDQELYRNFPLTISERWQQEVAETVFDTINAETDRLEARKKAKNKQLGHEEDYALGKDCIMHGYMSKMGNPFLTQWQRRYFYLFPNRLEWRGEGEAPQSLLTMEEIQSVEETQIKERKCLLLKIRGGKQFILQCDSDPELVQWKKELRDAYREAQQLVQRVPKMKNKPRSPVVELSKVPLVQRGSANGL
UniProt Q96PN8, sequence (whole entry, looked up): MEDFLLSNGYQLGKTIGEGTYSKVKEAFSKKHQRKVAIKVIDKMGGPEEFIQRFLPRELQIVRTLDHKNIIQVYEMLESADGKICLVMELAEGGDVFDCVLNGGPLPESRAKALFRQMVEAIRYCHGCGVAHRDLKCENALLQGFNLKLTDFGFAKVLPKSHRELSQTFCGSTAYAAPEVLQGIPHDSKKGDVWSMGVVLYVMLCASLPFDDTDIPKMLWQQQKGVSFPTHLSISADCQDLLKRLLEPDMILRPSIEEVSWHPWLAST

Block 1
SMILES: Cc1ncsc1-c1ccc(C(CO)NC(=O)C2CC(O)CN2C(=O)C(C(C)C)n2cc(-c3ccc(COc4c(-c5c(C)c(F)cc6[nH]ncc56)c(C5CC5)cc5c(N6CC7CC6CN7)nc(OC6CCOCC6)nc45)cc3)nn2)cc1 (centres unmarked)
Read-out: cell growth or viability
Technique: ATP luminescence
Time: 6 days
cell line	conditions	viability
A-375	300 pM	87.7% and 84.9% and 89.6% and 89.2%
PK-59	0.3 µM	5.14% and 7.08% and 4.81% and 7%
HPAC	3 nM	79.9% and 73.4% and 57.9% and 84.6%
T24	3 µM	97% and 102% and 90.6% and 93.8%
PaTu 8902	0.3 µM	73.2% and 72.9% and 71.9% and 75.5%
NCI-H358	0.3 µM	15.3% and 17.4% and 11.9% and 12.9%
HT-29	0.3 µM	87.7% and 84% and 96.2% and 128%
NCI-H1299	3 nM	90% and 103% and 89.7% and 88.3%
GP5d	0.1 µM	39.1% and 26.6% and 46.3% and 25.5%
BXPC-3	10 µM	108% and 116% and 79% and 87.2%

Block 2
SMILES: Cc1ccc(O)c(C)c1-c1cnc2[nH]c(-c3cnc(N4CCC5(CC4)CC(CN4CCN(c6ccc(NC7CCC(=O)NC7=O)cc6F)CC4)C5)nc3)cc2c1C#N (centres unmarked)
Target: Membrane-associated tyrosine- and threonine-specific cdc2-inhibitory kinase (PKMYT1, Homo sapiens, UniProt Q99640)
Construct (Q99640 1-499): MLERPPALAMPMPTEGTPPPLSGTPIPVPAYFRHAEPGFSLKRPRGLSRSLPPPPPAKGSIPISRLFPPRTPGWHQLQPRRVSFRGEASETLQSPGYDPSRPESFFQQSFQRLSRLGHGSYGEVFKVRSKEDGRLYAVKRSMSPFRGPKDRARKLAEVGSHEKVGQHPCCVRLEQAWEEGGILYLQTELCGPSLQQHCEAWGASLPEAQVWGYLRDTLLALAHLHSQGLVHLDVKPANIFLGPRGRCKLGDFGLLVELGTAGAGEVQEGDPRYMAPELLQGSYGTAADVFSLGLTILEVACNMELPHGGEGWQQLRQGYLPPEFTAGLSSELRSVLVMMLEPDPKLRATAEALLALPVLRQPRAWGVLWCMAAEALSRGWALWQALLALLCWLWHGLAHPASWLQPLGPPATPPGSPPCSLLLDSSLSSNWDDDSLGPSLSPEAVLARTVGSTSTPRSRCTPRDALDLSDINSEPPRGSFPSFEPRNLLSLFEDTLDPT
test	conditions	inhibition
	0.01235 µM	75.1%
cell-free assay, inhibitor, TR-FRET	12.35 nM	77.3%
cell-free assay, inhibitor, TR-FRET	152 pM	-5.24%
cell-free assay, inhibitor, TR-FRET	51 pM	-8.61%
	0.00412 µM	38.4%
	0.00137 µM	7.24%
	0.000152 µM	-3.93%
cell-free assay, inhibitor, TR-FRET	460 pM	-4.29%
	0.3333 µM	99.3%
cell-free assay, inhibitor, TR-FRET	0.1111 µM	97.7%

Block 3
SMILES: CCN1/C(=C/C=C2\CCCC(/C=C/C3=[N+](CC)c4ccccc4C3(C)C)=C2NCCCCCCCCN2CCC(Nc3nc4ccccc4n3Cc3ccc(F)cc3)CC2)C(C)(C)c2ccccc21
Cell line: U-87 MG
Concentration: concentration not given
Baseline: DMSO
test	log2 fold change
refers to: SIK1 mRNA	1.3
refers to: ARID5A mRNA	1.59
refers to: BRAF mRNA	0.957
refers to: PTP4A1 mRNA	0.816
refers to: NRIP3 mRNA	0.971
refers to: GCC1 mRNA	1.38
refers to: TENT5B mRNA	-3.75
refers to: RNF103 mRNA	1.03
refers to: MSANTD4 mRNA	1.1
refers to: ARL5B mRNA	1.36
refers to: NDE1 mRNA	-0.925
refers to: PCNT mRNA	-0.8
refers to: FGFBP1 mRNA	-4.02
refers to: ATP23 mRNA	-1.27
refers to: TACC3 mRNA	-1.92
refers to: MTRNR2L8 mRNA	1.25

Block 4
SMILES: CCONC(=O)/C=C/CNCCCCN1c2cc(Cl)ccc2CCc2cnn(C)c21.O=C(O)/C=C\C(=O)O
Cell line: NCI-H292
Technique: CellTiter-Glo
Time: 72 h
Reading: higher = more viable cells
conditions	luminescence
5 µM	2.36e+06 a.u. and 2.33e+06 a.u. and 2.73e+06 a.u.
0.005 µM	4.21e+06 a.u. and 3.61e+06 a.u. and 3.89e+06 a.u.
0.5 µM	3.94e+06 a.u. and 3.63e+06 a.u. and 4.14e+06 a.u.
50 µM	34700 a.u. and 38900 a.u. and 31700 a.u.

Block 5
SMILES: COc1cc(-c2nc3ccc(C(=O)NCCCN4CCN(c5cccc(C)c5C)CC4)cc3n2C2CCC2)cc(OC)c1OC
target	test	conditions	remaining binding [%]
Serine/threonine-protein kinase TAO1 (TAOK1, Homo sapiens, UniProt Q7L7X3)	binding, competition with immobilised ligand	1 µM	92
Serine/threonine-protein kinase MAK (MAK, Homo sapiens, UniProt P20794)	binding, competition with immobilised ligand	1 µM	100
Mitogen-activated protein kinase kinase kinase 12 (MAP3K12, Homo sapiens, UniProt Q12852)	binding, competition with immobilised ligand	1 µM	96
Serine/threonine-protein kinase Nek5 (NEK5, Homo sapiens, UniProt Q6P3R8)	binding, competition with immobilised ligand	1 µM	100
Tyrosine-protein kinase CSK (CSK, Homo sapiens, UniProt P41240)	binding, competition with immobilised ligand	1 µM	100
Wee1-like protein kinase 2 (WEE2, Homo sapiens, UniProt P0C1S8)	binding, competition with immobilised ligand	1 µM	96
Serine/threonine-protein kinase pim-1 (PIM1, Homo sapiens, UniProt P11309)	binding, competition with immobilised ligand	1 µM	89
Cyclin-dependent kinase 17 (CDK17, Homo sapiens, UniProt Q00537)	binding, competition with immobilised ligand	1 µM	99
Serine/threonine-protein kinase TAO2 (TAOK2, Homo sapiens, UniProt Q9UL54)	binding, competition with immobilised ligand	1 µM	82
Serine/threonine-protein kinase SIK3 (SIK3, Homo sapiens, UniProt Q9Y2K2)	binding, competition with immobilised ligand	1 µM	74
Phosphatidylinositol 4,5-bisphosphate 3-kinase catalytic subunit delta isoform (PIK3CD, Homo sapiens, UniProt O00329)	binding, competition with immobilised ligand	1 µM	91
Mitogen-activated protein kinase kinase kinase kinase 2 (MAP4K2, Homo sapiens, UniProt Q12851)	binding, competition with immobilised ligand	1 µM	72
Cyclin-dependent kinase 8 (CDK8, Homo sapiens, UniProt P49336)	binding, competition with immobilised ligand	1 µM	89
Platelet-derived growth factor receptor alpha (PDGFRA, Homo sapiens, UniProt P16234)	binding, competition with immobilised ligand	1 µM	92
Ephrin type-A receptor 2 (EPHA2, Homo sapiens, UniProt P29317)	binding, competition with immobilised ligand	1 µM	100
Serine/threonine-protein kinase 36 (STK36, Homo sapiens, UniProt Q9NRP7)	binding, competition with immobilised ligand	1 µM	81
Activated CDC42 kinase 1 (TNK2, Homo sapiens, UniProt Q07912)	binding, competition with immobilised ligand	1 µM	79
Serine/threonine-protein kinase ULK3 (ULK3, Homo sapiens, UniProt Q6PHR2)	binding, competition with immobilised ligand	1 µM	97
Ephrin type-A receptor 3 (EPHA3, Homo sapiens, UniProt P29320)	KINOMEscan	1000 nM	98
Dual specificity mitogen-activated protein kinase kinase 7 (MAP2K7, Homo sapiens, UniProt O14733)	binding, competition with immobilised ligand	1 µM	72
Mitogen-activated protein kinase kinase kinase kinase 4 (MAP4K4, Homo sapiens, UniProt O95819)	binding, competition with immobilised ligand	1 µM	94
Serine/threonine-protein kinase DCLK2 (DCLK2, Homo sapiens, UniProt Q8N568)	binding, competition with immobilised ligand	1 µM	96
Serine/threonine-protein kinase 38 (STK38, Homo sapiens, UniProt Q15208)	binding, competition with immobilised ligand	1 µM	85
Myosin light chain kinase 2, skeletal/cardiac muscle (MYLK2, Homo sapiens, UniProt Q9H1R3)	binding, competition with immobilised ligand	1 µM	82
Beta-adrenergic receptor kinase 1 (GRK2, Homo sapiens, UniProt P25098)	binding, competition with immobilised ligand	1 µM	96

Block 6
Structure (SMILES): C[C@@H]1CN(c2ccc(-c3cc(C(=O)NCCOCCOCCOCCOCCNC(=O)Cn4cc(-c5[nH]cc(C(=O)N[C@@H](CC(N)=O)c6ccc(F)c(Cl)c6)c5-c5ccc(Cl)cc5F)cn4)ccc3F)cc2NC(=O)c2c[nH]c(=O)cc2C(F)(F)F)C[C@H](C)N1C
Read-out: thermal unfolding
Technique: differential scanning fluorimetry
Concentration: 5.5 µM
Reading: higher = more unfolded
WDR5: WD repeat-containing protein 5 (WDR5, Homo sapiens, UniProt P61964)
DCAF1: DDB1- and CUL4-associated factor 1 (DCAF1, Homo sapiens, UniProt Q9Y4B6)
UniProt Q9Y4B6, sequence (whole entry, looked up): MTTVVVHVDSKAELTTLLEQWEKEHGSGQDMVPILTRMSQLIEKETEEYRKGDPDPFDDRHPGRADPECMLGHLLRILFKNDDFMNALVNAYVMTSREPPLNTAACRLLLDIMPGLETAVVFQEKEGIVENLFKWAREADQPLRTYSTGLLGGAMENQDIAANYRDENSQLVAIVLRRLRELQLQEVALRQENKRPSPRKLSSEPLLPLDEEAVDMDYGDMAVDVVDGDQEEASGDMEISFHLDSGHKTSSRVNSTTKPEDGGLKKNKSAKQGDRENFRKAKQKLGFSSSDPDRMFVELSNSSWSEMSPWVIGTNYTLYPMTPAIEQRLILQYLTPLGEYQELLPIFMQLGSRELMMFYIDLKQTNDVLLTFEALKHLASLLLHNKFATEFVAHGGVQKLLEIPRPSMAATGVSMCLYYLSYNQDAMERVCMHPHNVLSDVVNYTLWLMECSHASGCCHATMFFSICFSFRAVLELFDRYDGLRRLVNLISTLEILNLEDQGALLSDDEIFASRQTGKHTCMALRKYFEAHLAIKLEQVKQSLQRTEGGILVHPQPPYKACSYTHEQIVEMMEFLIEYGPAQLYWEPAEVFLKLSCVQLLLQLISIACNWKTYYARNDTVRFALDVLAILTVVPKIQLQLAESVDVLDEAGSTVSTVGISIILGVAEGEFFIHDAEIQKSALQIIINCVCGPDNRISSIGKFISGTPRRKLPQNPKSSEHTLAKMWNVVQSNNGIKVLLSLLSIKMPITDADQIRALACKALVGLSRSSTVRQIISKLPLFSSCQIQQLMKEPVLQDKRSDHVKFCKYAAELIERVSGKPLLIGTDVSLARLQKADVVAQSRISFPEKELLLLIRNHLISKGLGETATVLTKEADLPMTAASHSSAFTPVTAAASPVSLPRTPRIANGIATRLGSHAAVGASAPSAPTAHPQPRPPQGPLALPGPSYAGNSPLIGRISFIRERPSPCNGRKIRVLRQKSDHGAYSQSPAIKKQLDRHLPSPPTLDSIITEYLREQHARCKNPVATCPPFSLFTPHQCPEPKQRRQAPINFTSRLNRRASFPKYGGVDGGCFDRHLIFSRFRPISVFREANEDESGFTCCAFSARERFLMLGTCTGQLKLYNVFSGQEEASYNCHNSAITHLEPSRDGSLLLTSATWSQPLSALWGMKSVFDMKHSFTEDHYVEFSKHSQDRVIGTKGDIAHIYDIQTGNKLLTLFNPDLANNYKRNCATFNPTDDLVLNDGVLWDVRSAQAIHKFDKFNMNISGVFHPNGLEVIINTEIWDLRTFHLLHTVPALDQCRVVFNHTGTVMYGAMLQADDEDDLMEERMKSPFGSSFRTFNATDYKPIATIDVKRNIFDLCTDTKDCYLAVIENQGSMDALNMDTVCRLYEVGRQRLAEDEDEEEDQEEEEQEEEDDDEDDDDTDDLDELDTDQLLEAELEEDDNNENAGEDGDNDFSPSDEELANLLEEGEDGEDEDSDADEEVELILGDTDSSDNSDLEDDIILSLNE
target	conditions	SYPRO Orange fluorescence [a.u.]
WDR5	87.41 °C	43300
DCAF1	85.81 °C	38900
WDR5	83.81 °C	36200
WDR5	37.8 °C	14400
WDR5	44 °C	14500
WDR5	68.21 °C	6850
WDR5	91.01 °C	42400
WDR5	46.4 °C	14300
DCAF1	63.41 °C	52700
DCAF1	38.4 °C	9760
DCAF1	48.2 °C	13600

Block 7
SMILES: CC[C@@]1(c2cccc(C(F)(F)F)c2)C2=C(Nc3n[nH]cc31)[C@H](F)C(C)(C)CC2=O (single isomer, unassigned)
Concentration: 1 µM
target	test	scale	remaining binding [%]
Testis-specific serine/threonine-protein kinase 3 (TSSK3, Homo sapiens, UniProt Q96PN8)	kinase binding, KINOMEscan	baseline: DMSO control	100
Phosphatidylinositol 4,5-bisphosphate 3-kinase catalytic subunit alpha isoform (PIK3CA, Homo sapiens, UniProt P42336, C420R)	kinase binding, KINOMEscan	baseline: DMSO control	78
Mast/stem cell growth factor receptor Kit, autoinhibited (KIT, Homo sapiens, UniProt P10721)	kinase binding, KINOMEscan	baseline: DMSO control	100
Ribosomal protein S6 kinase alpha-1, N-terminal kinase domain (RPS6KA1, Homo sapiens, UniProt Q15418)	kinase binding, KINOMEscan	baseline: DMSO control	92
Cyclin-dependent kinase 17 (CDK17, Homo sapiens, UniProt Q00537)	binding, competition with immobilised ligand		72
cAMP-dependent protein kinase catalytic subunit alpha (PRKACA, Homo sapiens, UniProt P17612)	kinase binding, KINOMEscan	baseline: DMSO control	100
Dual specificity protein kinase TTK (TTK, Homo sapiens, UniProt P33981)	binding, competition with immobilised ligand		100
Serine/threonine-protein kinase PLK1 (PLK1, Homo sapiens, UniProt P53350)	binding, competition with immobilised ligand		99
Protein kinase C delta type (PRKCD, Homo sapiens, UniProt Q05655)	kinase binding, KINOMEscan	baseline: DMSO control	100
Activin receptor type-2A (ACVR2A, Homo sapiens, UniProt P27037)	binding, competition with immobilised ligand		91
Fibroblast growth factor receptor 2 (FGFR2, Homo sapiens, UniProt P21802)	kinase binding, KINOMEscan	baseline: DMSO control	100
Tyrosine-protein kinase Fyn (FYN, Homo sapiens, UniProt P06241)	kinase binding, KINOMEscan	baseline: DMSO control	92
Serine/threonine-protein kinase SIK3 (SIK3, Homo sapiens, UniProt Q9Y2K2)	binding, competition with immobilised ligand		100

Block 8
Compound: O=C(O)C1(O)Oc2cc(F)ccc2N(Cc2ccccc2)C1=O (centres unmarked)
organism	test	test system	conditions	scale	inhibition
Arabidopsis thaliana	hypocotyl length	Col-0, seedlings	50 µg/mL, half-strength MS		99.4%
Arabidopsis thaliana	hypocotyl length	Col-0	12.5 µg/mL, 7 days, seed germination, dark		45.1%
Arabidopsis thaliana	root length	Col-0, seedlings	25 µg/mL		88.3%
Arabidopsis thaliana	root length	Col-0, seedlings	50 µg/mL	baseline: water control	99.2%
Arabidopsis thaliana	hypocotyl length	Col-0, seedlings	12.5 µg/mL		45.1%
Arabidopsis thaliana	root length	Col-0, seedlings	6.25 µg/mL	baseline: water control	60%
Arabidopsis thaliana	hypocotyl length	Col-0, seedlings	100 µg/mL		99.6%
Arabidopsis thaliana	root length	Col-0, seedlings	3.125 µg/mL		41.1%
Amaranthus retroflexus	fresh weight		150 g ai/ha, post-emergence treatment		70.4% and 75% and 71.5%
Avena fatua	fresh weight		150 g ai/ha, pre-emergence treatment		100%
Arabidopsis thaliana	hypocotyl length	Col-0	25.0 µg/mL, 7 days, seed germination, dark		59.4%
Arabidopsis thaliana	root length	Col-0, seedlings	25 µg/mL	baseline: water control	88.3%
Glycine max	fresh weight		soil surface spray, 150 g ai/ha, 21 days, pre-emergence crop safety		3.5% and 2.2% and 2.7%
Arabidopsis thaliana	root length	Col-0, seedlings	50 µg/mL		99.2%

Further values, each from its own experiment
BTK: Tyrosine-protein kinase BTK (BTK, Homo sapiens, UniProt Q06187)
UniProt Q06187, sequence (whole entry, looked up): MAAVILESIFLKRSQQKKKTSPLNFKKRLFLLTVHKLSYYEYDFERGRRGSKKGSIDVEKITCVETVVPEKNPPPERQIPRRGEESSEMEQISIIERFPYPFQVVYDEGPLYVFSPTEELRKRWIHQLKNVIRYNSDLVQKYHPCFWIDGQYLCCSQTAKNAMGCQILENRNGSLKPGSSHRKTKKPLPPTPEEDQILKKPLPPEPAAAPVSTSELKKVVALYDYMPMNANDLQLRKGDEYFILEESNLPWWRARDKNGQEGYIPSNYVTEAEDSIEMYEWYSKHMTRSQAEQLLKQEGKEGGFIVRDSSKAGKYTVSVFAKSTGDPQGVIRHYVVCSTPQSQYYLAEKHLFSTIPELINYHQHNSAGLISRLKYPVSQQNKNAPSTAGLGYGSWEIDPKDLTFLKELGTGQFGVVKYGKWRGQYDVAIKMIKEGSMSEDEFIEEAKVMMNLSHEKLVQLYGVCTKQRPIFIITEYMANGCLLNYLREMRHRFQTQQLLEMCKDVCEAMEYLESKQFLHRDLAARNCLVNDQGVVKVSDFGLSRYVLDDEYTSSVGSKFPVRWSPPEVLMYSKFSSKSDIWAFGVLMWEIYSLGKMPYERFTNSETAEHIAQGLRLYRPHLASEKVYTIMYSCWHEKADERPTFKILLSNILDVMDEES
Compound	target	test	test system	conditions	measurement	result
CN(C1COC1)C(C)(C)C=C(C#N)C(=O)N1CCCC1Cn1nc(-c2ccc(Oc3ccccc3)cc2F)c2c(N)ncnc21 (centres unmarked)	BTK	enzyme activity, inhibitor		15 min preincubation, with: 16 µM ATP	IC50	0.0044 ± 0.0008 µM
O=C(Nc1ccccc1)Nc1cccc(Oc2ccc3nccn3n2)c1	cAMP-dependent protein kinase catalytic subunit alpha (PRKACA, Homo sapiens, UniProt P17612)	cell-free assay		1 µM	remaining signal	52%
CC(C)/C=C(\C#N)C(=O)N1CCC[C@@H](n2nc(-c3ccc(Oc4ccccc4)cc3)c3c(N)ncnc32)C1	BTK	target occupancy, PP-BODIPY competition labelling	Ramos	1 h	EC50	0.0432 ± 0.007 µM
CC(C)(C=C(C#N)C(=O)N1CCCC1Cn1nc(-c2ccc(Oc3ccccc3)cc2F)c2c(N)ncnc21)N1CCOCC1 (centres unmarked)	BTK	fluorescence competition		room temperature	residence time	3.4 ± 0.3 h
